# Measured values pooled from the literature.
# Protocols differ between the studies behind these lines.
SMILES,assay,test system,conditions,scale,Cmax
CCn1cc(C(=O)N2CCOCC2)c(=O)c2cc(NC3Cc4ccccc4C3)cnc21,,"human, fed","oral suspension, 300 mg/day twice daily, day 1, arithmetic mean",,699 ng/mL
COc1cc(N2CCC(N3CCN(C)CC3)CC2)ccc1Nc1ncnc(Nc2ccccc2S(=O)(=O)C(C)C)n1,,"human, plasma","oral, 125 mg, day 1",,317 ng/mL
C[C@@H]1CCO[C@H]2Cn3cc(C(=O)NCc4ccc(F)cc4F)c(=O)c(O)c3C(=O)N12,,"human paediatric patients, weight sample B to under sample C kg, plasma","oral, 50 mg film-coated tablet, steady state, geometric mean, population PK post-hoc, N 6",,5170 ng/mL
C=CC(=O)N(C)CCOc1c(N)ncnc1-c1cc(F)cc(NC(=O)c2ccc(C3CC3)cc2F)c1C,,"human, whole blood","oral, 600 mg single dose",,511 ng/mL
COc1ncc(-c2nc3c(n2C(C)C)[C@H](c2ccc(Cl)cc2)N(c2cc(Cl)cn(C)c2=O)C3=O)c(OC)n1,LC-MS/MS,"human, plasma","oral, 7.5 mg, cycle 1 day 8, low-dose arm",,48.1 ng/mL
CCOc1c([C@H](C)n2nc(C)c3c(N)ncnc32)cc(Cl)c(F)c1[C@@H]1CNC(=O)C1,,"human, B-cell malignancies, plasma","oral, 30 mg, day 15, geometric mean",,2300 nM
Cl.[2H]C([2H])([2H])CC(=O)c1cnc(NC(=O)C2CC2)cc1Nc1cccc(-c2ncn(C([2H])([2H])[2H])n2)c1OC,geometric mean,human,"oral, 50 mg single dose, fasted, liquid",,603 ng/mL
CO[C@H]1C[C@@H]2CC[C@@H](C)[C@@](O)(O2)C(=O)C(=O)N2CCCC[C@H]2C(=O)O[C@H]([C@H](C)C[C@@H]2CC[C@@H](OC(=O)NCCOCCOCCOCCOCCOCCOCCOCCOCCC(=O)N3CCc4cc(Cn5nc(-c6ccc7oc(N)nc7c6)c6c(N)ncnc65)ccc4C3)[C@H](OC)C2)C[C@@H](O)[C@H](C)/C=C(\C)[C@@H](O)[C@@H](OC)C(=O)[C@H](C)C[C@H](C)/C=C/C=C/C=C/1C,,"human, plasma","intravenous, 6 mg, cycle 1 day 15, arithmetic mean",,273 ng/mL
CNC(=O)c1ccc(-c2cnc3ncc(Cc4ccc5ncccc5c4)n3n2)cc1F,,human mild hepatic impairment,"oral, 200 mg single dose, covariate-adjusted geometric mean",,1270 ng/mL
C=CCn1c(=O)c2cnc(Nc3ccc(N4CCN(C)CC4)cc3)nc2n1-c1cccc(C(C)(C)O)n1,,human,"oral, 200 mg once daily, cycle 1 day 17, with: durvalumab 1500 mg IV",geometric mean,676 nM

# Repeated from above:
SMILES,assay,test system,conditions,scale,Cmax
CCOc1c([C@H](C)n2nc(C)c3c(N)ncnc32)cc(Cl)c(F)c1[C@@H]1CNC(=O)C1,,"human, B-cell malignancies, plasma","oral, 30 mg, day 15, geometric mean",,2300 nM
C=CCn1c(=O)c2cnc(Nc3ccc(N4CCN(C)CC4)cc3)nc2n1-c1cccc(C(C)(C)O)n1,,human,"oral, 200 mg once daily, cycle 1 day 17, with: durvalumab 1500 mg IV",geometric mean,676 nM
